Measurements from different studies.
Parts stem from different laboratories: compare values within a part only. Changes are numbered by the printed parent chain.

Sample 1
Target: Fragile X messenger ribonucleoprotein 1, C-terminal low-complexity region (Fmr1, Mus musculus, UniProt P35922)
Technique: RNA Bind-n-Seq
Molecule type: RNA
Medium: in vitro
Concentration: 200 nM
Setting: whole 134-nt RNA, ends assumed
Together with: 150 mM KCl
Reference: input library
Direction: higher = stronger binding
For `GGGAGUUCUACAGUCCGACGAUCUACUCUUUGAUUUAUCAAAUGUGUUCAGUUGGAGAAUCGUCCUCAGGAAAGGCUUCAAGGAGCCUUGCACAGCAUAUUCCUGGCCCUGGUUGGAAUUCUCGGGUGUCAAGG`, the log2 enrichment was -1.
For `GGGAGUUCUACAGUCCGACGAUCCUCAAGUCCUGUGCUACACAUCGUAUGUACCGAAUCGGUGGAAAGGUUUUUGGAAAGUAUUAUGUUACGCCGUUCGGAUCUGCACUUCCAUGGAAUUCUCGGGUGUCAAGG`, the log2 enrichment was -0.191.
With `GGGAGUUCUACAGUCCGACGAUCCUCAAGUCCUGUGCUACACAUCGUAUGUACCGAAUCGGUGGUUUUUUUGGUGGAAAGUAUUAUGUUACGCCGUUCGGAUCUGCACUUCCAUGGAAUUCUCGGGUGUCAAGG` the log2 enrichment was 0.0766.
`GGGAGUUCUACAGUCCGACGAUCGUCCUGUGCUACACAUCGUAUGUACCGAAUCGGGUUUUUGGGUUUUUGGGUUUUUGGGGAAAGUAUUAUGUUACGCCGUUCGGAUCUGCAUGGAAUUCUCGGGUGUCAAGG` has a log2 enrichment of 0.526.
`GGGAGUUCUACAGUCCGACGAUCCUCAAGUCCUGUGCUACACAUCGUAUGUACCGAAUCGGGAGGGUUUGGGAGGGAAAGUAUUAUGUUACGCCGUUCGGAUCUGCACUUCCAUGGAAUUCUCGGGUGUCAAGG` gave a log2 enrichment of 1.35.
`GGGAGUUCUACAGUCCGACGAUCGUCCUGUGCUACACAUCGUAUGUACCGAAUCGGGGAAAGGGGUGGGGUUUUUUUGGGGAAAGUAUUAUGUUACGCCGUUCGGAUCUGCACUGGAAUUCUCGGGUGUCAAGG` has a log2 enrichment of 0.747.
For `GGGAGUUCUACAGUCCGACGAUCUGUUCCUGUUGAUGAAAAUCUUUUCACUGGAGAGGAUUUGGAUGAACUAGAAGAAGAAUUAAAUACACUUGAUUUAGAAGAAUGACACCAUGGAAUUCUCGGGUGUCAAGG`, the log2 enrichment was -0.362.
The log2 enrichment of `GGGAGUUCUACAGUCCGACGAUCCAAGUCCUGUGCUACACAUCGUAUGUACCGAAUCGGUUUGGUUUGGAAAAAAAGGAAAGUAUUAUGUUACGCCGUUCGGAUCUGCACUUCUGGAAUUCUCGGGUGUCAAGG` is reported as -0.656.
With `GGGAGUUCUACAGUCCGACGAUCUGGGAGGUGGAUUUUGUUUAUUUUUUUAGCUCAUUUCCAGGGGUGGGAAUAUUUUUUUAAUAUGUGUCAUGAAUAAAGUUGUUUUUGAAAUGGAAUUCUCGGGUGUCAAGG` the log2 enrichment was 0.219.

Sample 2
Target: CCNB2, cyclin fold, Cln2 fusion (human)
Technique: yeast growth competition, sequencing
Medium: yeast
Setting: weak parent motif
Reference: not given
Direction: higher = stronger binding
Starting sequence: RBL2 docking peptide (human); STTRRRLFVENDS
`STGRRRLFVENDS [T3G]` — result for “normalised enrichment score”: 0.769.
`STTRRRQFVENDS [L7Q]` — result for “normalised enrichment score”: 0.344.
For `SETRRRLFVENDS [T2E]`, “normalised enrichment score” read 0.339.
`STTRRRLFSENDS [V9S]`: “normalised enrichment score” 0.255.
Under “normalised enrichment score”, `STTRRNLFVENDS [R6N]` is recorded as -0.0794.
Under “normalised enrichment score”, `STTRRRLFVENGS [D12G]` is recorded as -0.129.
`STTRRRLFVQNDS [E10Q]` — result for “normalised enrichment score”: 0.5.
`STTRRRRFVENDS [L7R]` — result for “normalised enrichment score”: 0.273.
Under “normalised enrichment score”, `STTRRDLFVENDS [R6D]` is recorded as 0.191.
Under “normalised enrichment score”, `STTRRRLFVENKS [D12K]` is recorded as 0.802.
`STTRRRGFVENDS [L7G]`: “normalised enrichment score” -0.437.
For `STMRRRLFVENDS [T3M]`, “normalised enrichment score” read 0.155.
`SVTRRRLFVENDS [T2V]`: “normalised enrichment score” 0.372.
Under “normalised enrichment score”, `STTRRRLFVEADS [N11A]` is recorded as 0.149.
For `STARRRLFVENDS [T3A]`, “normalised enrichment score” read 0.252.
`STTRRRLFVENSS [D12S]`: “normalised enrichment score” 0.397.
Under “normalised enrichment score”, `STTRRVLFVENDS [R6V]` is recorded as 0.435.
Under “normalised enrichment score”, `STTRRRLFDENDS [V9D]` is recorded as 0.184.
`STTRRRLFVENAS [D12A]`: “normalised enrichment score” -0.128.
For `STTRRRLFVENPS [D12P]`, “normalised enrichment score” read 0.322.
For `STWRRRLFVENDS [T3W]`, “normalised enrichment score” read 0.616.
Under “normalised enrichment score”, `STTRRRLHVENDS [F8H]` is recorded as -0.324.
`STTRRYLFVENDS [R6Y]`: “normalised enrichment score” -0.289.
For `STTRRRLCVENDS [F8C]`, “normalised enrichment score” read 0.332.
`STTRRRLQVENDS [F8Q]`: “normalised enrichment score” 0.469.

Sample 3
Target: ABI1, truncated, D143A, DHFR fusion (Arabidopsis thaliana)
Technique: DHFR PCA, deep sequencing
Medium: yeast
Setting: methotrexate growth selection, single substitutions
Together with: (+)-ABA 2500 µM
Reference: wild-type fitted maximum
Direction: higher = stronger binding
Starting sequence: PYL1, truncated, DHFR fusion (Arabidopsis thaliana); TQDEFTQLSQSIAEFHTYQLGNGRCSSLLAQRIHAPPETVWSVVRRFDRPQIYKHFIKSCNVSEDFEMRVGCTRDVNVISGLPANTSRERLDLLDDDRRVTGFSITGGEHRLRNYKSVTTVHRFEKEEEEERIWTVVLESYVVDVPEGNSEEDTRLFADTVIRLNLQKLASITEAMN
For `F15Q`, “relative binding score” read 84.1%.
For `T160P`, “relative binding score” read 3.2%.
For `R90K`, “relative binding score” read 98.4%.
`G102R`: “relative binding score” 89.6%.
For `H34S`, “relative binding score” read 99.6%.
Under “relative binding score”, `T120I` is recorded as 19.8%.
`Y141I` — result for “relative binding score”: 2.55%.
`R32G`: “relative binding score” 77.1%.
`S63W` — result for “relative binding score”: 88%.
Under “relative binding score”, `P50Y` is recorded as -12.6%.
`R123V`: “relative binding score” 103%.
`G107E`: “relative binding score” 98.4%.
`Q7G` — result for “relative binding score”: 105%.
`D48H`: “relative binding score” 86.2%.
For `F66H`, “relative binding score” read 90.3%.
For `H34M`, “relative binding score” read 101%.
`Q51G`: “relative binding score” 88.6%.
`V43R` — result for “relative binding score”: 82.3%.
`V161E` — result for “relative binding score”: -8.37%.
`T101R` — result for “relative binding score”: 24.5%.
Under “relative binding score”, `L166H` is recorded as 86.5%.

Further values, each from its own experiment
`PhoQ, residues 284 288 289 292 302 303 TTSMTC` gave a fold induction of 8.57 (PhoP, residues 12 14 15 18 19 STWGI (Escherichia coli, UniProt P23836); Sort-seq, refers to: YFP reporter; E. coli; PhoQ-PhoP variant library, together with: 10 µM Mg2+; reference: high Mg2+ state, higher = stronger signaling).

Repeated from above (sample 2):
`STTRRRQFVENDS [L7Q]` — result for “normalised enrichment score”: 0.344.
For `SETRRRLFVENDS [T2E]`, “normalised enrichment score” read 0.339.
Under “normalised enrichment score”, `STTRRRLFVENKS [D12K]` is recorded as 0.802.
Under “normalised enrichment score”, `STTRRDLFVENDS [R6D]` is recorded as 0.191.
For `STARRRLFVENDS [T3A]`, “normalised enrichment score” read 0.252.
`STTRRRLFSENDS [V9S]`: “normalised enrichment score” 0.255.
For `STMRRRLFVENDS [T3M]`, “normalised enrichment score” read 0.155.
Under “normalised enrichment score”, `STTRRNLFVENDS [R6N]` is recorded as -0.0794.
`STGRRRLFVENDS [T3G]` — result for “normalised enrichment score”: 0.769.
